Measured values of several laboratories.
Parts stem from different laboratories: compare values within a part only.

Series 1
Target: Interferon regulatory factor 7, full length, phosphomimetic (IRF7, Homo sapiens, UniProt Q92985, residues 1-503, S471D/S472D/S475D/S476D/S477D/S483D/S484D/S487D)
UniProt Q92985, sequence (whole entry, unmodified, looked up): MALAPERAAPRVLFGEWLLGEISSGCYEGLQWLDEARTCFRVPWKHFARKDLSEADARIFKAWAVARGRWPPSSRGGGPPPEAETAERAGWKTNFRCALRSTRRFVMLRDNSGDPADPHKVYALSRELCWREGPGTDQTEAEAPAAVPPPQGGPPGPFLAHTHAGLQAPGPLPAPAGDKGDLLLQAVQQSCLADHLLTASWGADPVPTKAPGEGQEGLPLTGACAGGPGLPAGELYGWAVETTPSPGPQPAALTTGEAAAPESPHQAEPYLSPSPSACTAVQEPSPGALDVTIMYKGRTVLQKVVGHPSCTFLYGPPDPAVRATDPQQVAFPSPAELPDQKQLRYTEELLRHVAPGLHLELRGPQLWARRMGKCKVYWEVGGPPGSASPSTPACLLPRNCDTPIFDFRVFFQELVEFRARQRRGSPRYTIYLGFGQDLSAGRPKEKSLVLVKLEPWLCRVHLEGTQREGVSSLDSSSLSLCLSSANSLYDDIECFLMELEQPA
Method: protein-binding microarray
Molecule type: double-stranded DNA, one strand shown
Medium: in vitro
Tested at: 2200 nM top
Notes: 60-bp whole probe
Together with: salmon DNA 0.4 mg/ml
Baseline: random background probes
Direction: higher = stronger binding
Constant ends, left off below: GCCTAGCAC … GTCTTGATTCGCTTGACGCTGCTG
| Oligonucleotide | fitted relative affinity |
| --- | --- |
| TTAGAACTGGGGTATCGATTAGTGCTA | -0.0905 z-score |
| GACGACCTGAGTATCGAGACGTGCTAG | 0.107 z-score |
| TTCGATATCAGTATCGATTAGTGCTAG | 0.811 z-score |
| GACGGTATCGGGTATCGGGAAGTGCTA | -0.122 z-score |
| GACGAACCGAGTATCGAGACGTGCTAG | 0.143 z-score |

Series 2
Target: RING finger protein unkempt homolog, zinc fingers 1-6, GST-SBP tag (UNK, Homo sapiens, UniProt Q9C0B0, residues 30-357)
Method: RNA Bind-n-Seq
Molecule type: RNA
Medium: in vitro
Tested at: not given
Notes: RNA with constant flanks, human and mouse sites, ends assumed
Baseline: input RNA pool
Direction: higher = stronger binding
Construct (chain): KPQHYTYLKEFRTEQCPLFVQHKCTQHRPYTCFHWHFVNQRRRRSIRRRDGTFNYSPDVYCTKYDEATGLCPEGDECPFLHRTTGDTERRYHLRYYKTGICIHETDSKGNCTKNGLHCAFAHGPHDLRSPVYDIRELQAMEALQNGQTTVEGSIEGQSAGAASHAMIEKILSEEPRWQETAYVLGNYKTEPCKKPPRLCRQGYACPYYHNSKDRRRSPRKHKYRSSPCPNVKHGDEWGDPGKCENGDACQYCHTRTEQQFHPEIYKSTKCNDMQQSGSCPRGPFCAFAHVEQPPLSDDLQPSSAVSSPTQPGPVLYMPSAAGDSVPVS
| Oligonucleotide | bound/input enrichment [ratio] |
| --- | --- |
| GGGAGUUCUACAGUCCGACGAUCGCAGAGAUUCAUCACAGUUGGACUUCAGGGGUAGGGACAUACAUUCUGGGGAUUUUCGGGAUAGAGAAGGACCACCUAUGGACUAUAGGGGUGGAGAUGGUACUUCUAUGGAUUAUAGAGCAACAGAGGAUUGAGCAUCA | 1.42 |
| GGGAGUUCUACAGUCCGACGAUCAAAAGCACAAGUGUUCGAACUUCAACUUUUUACUCCAGACUGAGGCUACCCAGGGACAGACUUAGUGGCAGCAGGGUUGCAUCAGCACUGGUCACUCCAGUCCAGCCUGUGUGUAAAAUCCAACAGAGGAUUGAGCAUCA | 0.271 |
| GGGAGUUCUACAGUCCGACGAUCCAUGAUGUGCGAGGUGAUGCCUACCAUCAGCGAGGAUGGCCGGCGGGGCUCGGCGCUGGGCCCGGACGAGGCCGGCGGCGAGCUGGAGCGCCUCAUGGUCACGAUGCUCACAGAGCGCGACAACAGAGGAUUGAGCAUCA | 0.059 |
| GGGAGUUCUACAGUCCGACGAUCAUGUGAAAAUGUAUAAAUAUCAUCCAAAAGGCUUUCUGCCCUAUAUUUUUAAAAUACAGAAGUUAUAUUUGAAGUAGUCCUGGCCCUAGUUCUAUAGGGCUUGGCUAUUUAAUAUUUUUACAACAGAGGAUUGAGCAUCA | 0.309 |
| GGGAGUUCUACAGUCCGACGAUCACAAAUCUCAAUCCUGAUCUUAUCACACCACAUGGGCUUUUUAUCCUAUUUGGAGUCUAUGGUGAUGUACAUCGAGUGAAGAUUAUGUUUAAUAAGAAAGAAAAUGCCUUGGUUCAGAUGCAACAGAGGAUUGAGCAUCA | 0.158 |
| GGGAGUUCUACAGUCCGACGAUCCUGCAAGACAAGGACAAGGAGGUGGAAGAGCUCCUUCAGGAAAUACAAUGUGAGAAGGCUCAAGCAAAGACAGCCUCUGAGCUUUCUAAAUCCAUGGAGUCCAUGCGUGGGCAUUUGCAGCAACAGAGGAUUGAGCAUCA | 0.143 |
| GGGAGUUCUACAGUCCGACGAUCUUGUAUUUUCUAUCCAAAGAAAUAUAUGUGAUUACCCCAGAGACCUUCUCUACCAUAUCAGUAGUAGGGUUGAUAGUCUAUGUGAUUAAGAAAUAUGGCGCCUCUUUUGGAGAAUUUAUUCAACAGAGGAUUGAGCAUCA | 0.644 |

Series 3
Target: Prothrombin, mature alpha-thrombin (F2, Homo sapiens, UniProt P00734)
Method: aptamer microarray, sandwich
Molecule type: DNA with 2'F-ANA
Medium: in vitro
Tested at: 200 nM
Notes: whole 15-mer aptamer, many near background
Together with: Cy3 exosite-II aptamer, 400 nM
Direction: higher = stronger binding
Oligonucleotide: GGTTGGTGTGGTTGG
| Modification | mean fluorescence intensity |
| --- | --- |
| 2'F-ANA at 1 2 3 5 6 7 9 14 | 44.6 a.u. |
| 2'F-ANA at 2 5 6 7 10 13 | 44.5 a.u. |
| 2'F-ANA at 1 2 6 8 11 13 15 | 138 a.u. |
| 2'F-ANA at 1 4 5 9 11 12 | 90 a.u. |
| 2'F-ANA at 2 4 5 7 9 13 14 15 | 44.1 a.u. |
| 2'F-ANA at 2 5 6 7 12 | 155 a.u. |
| 2'F-ANA at 1 3 11 12 13 15 | 430 a.u. |
| 2'F-ANA at 2 7 9 | 503 a.u. |

Mixed results
| Substance | target | assay | test system | conditions | scale | endpoint | value |
| --- | --- | --- | --- | --- | --- | --- | --- |
| PhoQ, residues 284 288 289 292 302 303 SSTMSV | PhoP, residues 12 14 15 18 19 NQFFI (Escherichia coli, UniProt P23836) | Sort-seq, measured: YFP reporter | E. coli | PhoQ-PhoP variant library, together with: 10 µM Mg2+ | baseline: high Mg2+ state, higher = stronger signaling | fold induction | 2.83 |

Excerpt of the above (series 3):
| Modification | mean fluorescence intensity |
| --- | --- |
| 2'F-ANA at 1 2 3 5 6 7 9 14 | 44.6 a.u. |
| 2'F-ANA at 2 5 6 7 10 13 | 44.5 a.u. |
